# Measured values gathered from unrelated publications.
# Lines come from different studies, so protocols differ. pIC50: −log10 of the molar value.
# Action: inhibitor
# CDK2: Cyclin-dependent kinase 2 (CDK2, Homo sapiens, UniProt P24941)
# CDK2 with cyclin E: Cyclin-dependent kinase 2, with cyclin E (CDK2, Homo sapiens, UniProt P24941)
# CDK2 with cyclin A1: Cyclin-dependent kinase 2, with cyclin A1 (CDK2, Homo sapiens, UniProt P24941)
Compound,target,observed,method,pIC50
CN(C(=O)c1ccn2ncc(-c3ccc(C(N)=O)cc3)c2c1)c1ccc(C#N)cn1,CDK2,,,< 5.00
O=C(COC(=O)CCCn1c(=O)oc2cc([N+](=O)[O-])ccc21)Nc1cccc(Cl)c1,CDK2,enzyme activity,ADP detection,7.37
Cc1ccc(C(C)C)cc1.Oc1ccccc1C=NNC1=Nc2ccccc2-c2[nH]c3ccc(Br)cc3c2C1.[Cl-].[Cl][Os+],CDK2 with cyclin E,enzyme activity,radiometric,< 4.40
CC(=O)N[C@@H](Cc1c[nH]c2ccccc12)C(=O)N[C@@H](Cc1c[nH]c2ccccc12)C(=O)N[C@@H](Cc1c[nH]c2ccccc12)C(=O)N[C@@H](Cc1c[nH]c2ccccc12)C(=O)N[C@@H](Cc1c[nH]c2ccccc12)C(=O)N[C@@H](Cc1c[nH]c2ccccc12)C(=O)N[C@@H](Cc1c[nH]c2ccccc12)C(=O)NCCCC[C@@H]1NC(=O)[C@H](CCCNC(=N)N)NC(=O)[C@H](CCCNC(=N)N)NC(=O)[C@H](CCCNC(=N)N)NC(=O)[C@H](CCCNC(=N)N)NC(=O)[C@H](CCCNC(=N)N)NC1=O,CDK2 with cyclin A1,enzyme activity,,5.58
COC(=O)N[C@H]1CC[C@@H](Nc2cc(NCc3ccccc3F)n3ncc(C(C)C)c3n2)CC1,CDK2 with cyclin E,enzyme activity,luciferase kinase,7.15
N#Cc1c(N)nc(N)nc1OCC1CCCCC1,CDK2,enzyme activity,,4.22
CC1=CC[C@]2(C(=O)O[C@H]3OC[C@@H](O)[C@@H](O)[C@@H]3OS(=O)(=O)O)CC[C@]3(C)C(CCC4[C@@]5(C)CC[C@H](O)C(C)(C)C5CC[C@]43C)C2[C@H]1C (some centres unmarked),CDK2,enzyme activity,,6.93
N=C(N)NCCC[C@@H]1NC(=O)[C@H](Cc2c[nH]c3ccccc23)NC(=O)[C@H](CCCNC(=N)N)NC(=O)[C@H](Cc2c[nH]c3ccccc23)NC(=O)[C@H](CCCNC(=N)N)NC(=O)[C@H](Cc2c[nH]c3ccccc23)NC(=O)[C@H](CCCNC(=N)N)NC(=O)[C@H](Cc2c[nH]c3ccccc23)NC(=O)[C@H](CCCNC(=N)N)NC(=O)[C@H](Cc2c[nH]c3ccccc23)NC(=O)[C@H](CCCNC(=N)N)NC(=O)[C@H](Cc2c[nH]c3ccccc23)NC(=O)[C@H](CCCNC(=N)N)NC(=O)[C@H](Cc2c[nH]c3ccccc23)NC(=O)[C@H](CCCNC(=N)N)NC(=O)[C@H](Cc2c[nH]c3ccccc23)NC1=O,CDK2 with cyclin A1,enzyme activity,,6.04
CN(C)C/C=C/C(=O)Nc1ccc(C(=O)N[C@H]2CCC[C@@H](Nc3ncc(Cl)c(-c4c[nH]c5ccccc45)n3)C2)nc1,CDK2,enzyme activity,,6.49
N=C(N)NCCC[C@@H]1NC(=O)[C@H](Cc2c[nH]c3ccccc23)NC(=O)[C@H](CCCNC(=N)N)NC(=O)[C@H](Cc2c[nH]c3ccccc23)NC(=O)[C@H](CCCNC(=N)N)NC(=O)[C@H](Cc2c[nH]c3ccccc23)NC(=O)[C@H](CCCNC(=N)N)NC(=O)[C@H](Cc2c[nH]c3ccccc23)NC(=O)[C@H](CCCNC(=N)N)NC(=O)[C@H](Cc2c[nH]c3ccccc23)NC(=O)[C@H](CCCNC(=N)N)NC(=O)[C@H](Cc2c[nH]c3ccccc23)NC(=O)[C@H](CCCNC(=N)N)NC(=O)[C@H](Cc2c[nH]c3ccccc23)NC(=O)[C@H](CCCNC(=N)N)NC(=O)[C@H](Cc2c[nH]c3ccccc23)NC(=O)[C@H](CCCNC(=N)N)NC(=O)[C@H](Cc2c[nH]c3ccccc23)NC1=O,CDK2 with cyclin A1,enzyme activity,,6.24
Cc1nnc(NC(=O)CSc2nnc(-c3ccc4c(c3)OCCO4)o2)s1,CDK2,enzyme activity,ADP detection,7.17
